Experimental data pooled from the literature.
Compare with care: the assays were run in different laboratories.

Compound	target or system	test	system	conditions	measurement	value
COc1ccc2ncc(F)c(C[C@H](O)[C@H]3OC[C@H](NCc4ccc(Cl)c(Cl)c4)CO3)c2n1	Mycobacterium tuberculosis	–	H37Rv rpoB S450L mutant	–	MIC	0.125 µg/mL
O=C(CN1C(=O)CSC1=O)Oc1ccc(/C=N/NC(=S)Nc2cccc(Cl)c2)cc1Cl	Mycobacterium tuberculosis	Alamar blue	MDR 210	–	MIC	31.6 to 45.7 µM
CCCCCCNCc1ccc(Oc2ccc(Cl)cc2O)c(Cl)c1	Mycobacterium tuberculosis	–	mc2 5855	–	MIC	5 µg/mL
COc1ccc2nccc(CC[C@H]3OC[C@H](NC(=O)c4ccc(Cl)c(Cl)c4)CO3)c2c1	Mycobacterium tuberculosis	–	H37Rv rpoB S450L mutant	–	MIC	0.5 µg/mL
COc1c(N2CC3CCCNC3C2)c(F)cc2c(=O)c(C(=O)OCc3cnc([N+](=O)[O-])s3)cn(C3CC3)c12 (stereo not shown)	Mycobacterium tuberculosis	–	XDR	–	MIC	0.25 µM
CN[C@@H]1[C@H](O)[C@H](NC)[C@H]2O[C@]3(O)[C@H](O[C@@H]2[C@H]1O)O[C@H](C)C[C@H]3NC(=O)Cc1ccc(F)cn1	Mycobacterium tuberculosis	–	MDR clinical isolates	–	MIC	2 to 4 µg/mL
N#Cc1ccc(Oc2ccc(Cl)cc2Cl)c(O)c1	Mycobacterium tuberculosis	–	mc2 5855	–	MIC	12.5 µg/mL
CCOc1cc(/C=N/NC(=O)c2ccncc2)ccc1OC(=O)CN1C(=O)CSC1=O	Mycobacterium tuberculosis	Alamar blue	MDR 210	–	MIC	18.1 µM
COc1ccc2ncc(F)c(C[C@H](O)[C@H]3OC[C@H](NCc4ccc5c(n4)NC(=O)CO5)CO3)c2c1	Mycobacterium tuberculosis	–	H37Rv rpoB S450L mutant	–	MIC	0.125 µg/mL
CN[C@@H]1[C@H](O)[C@H](NC)[C@H]2O[C@]3(O)[C@H](O[C@@H]2[C@H]1O)O[C@H](C)C[C@H]3NC(=O)Cc1ccc(Cl)cn1	Mycobacterium tuberculosis	–	MDR clinical isolates	–	MIC	1 µg/mL
COc1ccc2nccc(CC[C@H]3OC[C@H](NC(=O)c4ccc(Cl)cc4)CO3)c2c1	Mycobacterium tuberculosis	–	H37Rv rpoB S450L mutant	–	MIC	2 µg/mL
O=C(CN1C(=O)CSC1=O)Oc1ccc(/C=N/NC(=O)c2ccncc2)cc1	Mycobacterium tuberculosis	Alamar blue	MDR 210	–	MIC	10 µM
CN[C@@H]1[C@H](O)[C@H](NC)[C@H]2O[C@]3(O)[C@H](O[C@@H]2[C@H]1O)O[C@H](C)C[C@H]3NC(=O)Cc1ccccn1	Mycobacterium tuberculosis	–	MDR clinical isolates	–	MIC	2 to 4 µg/mL
C[C@]12CC[C@H](OC(=O)C3CC3)[C@@](C)(COC(=O)C3CC3)C1C[C@H](O)[C@@]1(C)Oc3cc(-c4cccnc4)oc(=O)c3[C@H](O)C21 (stereo partly shown)	Nan-Iav channel Halyomorpha halys	ion current	HEK-293T	concentration not given	current density	13.2 pA/pF
Oc1cc(Cn2ccnn2)ccc1Oc1ccc(Cl)cc1Cl	Mycobacterium tuberculosis	–	mc2 5855	–	MIC	5 µg/mL
O=C(CN1C(=O)CSC1=O)Oc1ccc(/C=N/NC(=O)c2cccnc2)cc1Br	Mycobacterium tuberculosis	Alamar blue	MDR 210	–	MIC	268 to 1160 µM
